# Experimental data pooled from the literature.
# Compare with care: the assays were run in different laboratories.
# Target: Dual specificity mitogen-activated protein kinase kinase 1 (MAP2K1, Homo sapiens, UniProt Q02750)
Compound,observed,action,method,tested at,quantity,result
CN1CCN(Cc2ccc(NC(=O)c3cccc(C#Cc4cnc(N)c5ncccc45)c3)cc2C(F)(F)F)CC1,cell-free assay,,competition with immobilised ligand,0.5 µM,remaining binding,69%
CC(C)=CC1OC(C)(C)C2C=C3C(=O)C(Cl)=CC(O)C3C3C(O)C4OC4C(=O)C132 (stereo not shown),cell-free assay,,competition with immobilised ligand,10 µM,remaining binding,63%
c1ccc2c(Nc3cc(C4CCC4)[nH]n3)nc(Nc3ccc4nc[nH]c4c3)nc2c1,enzyme activity,inhibitor,,0.25 µM,remaining activity,35%
C=CC(=O)Nc1cccc(-c2cnc3[nH]cc(C(=O)NC(C)(C)C)c3n2)c1,enzyme activity,inhibitor,,0.1 µM,inhibition,5%
O=C(Cc1ccc(OCc2ccccc2)cc1)NC1(C(=O)O)CCN(C(=O)c2ccc(-c3cccc(Cl)c3)cc2)CC1,enzyme activity,inhibitor,,10 µM,activity vs control,112%
O=C(O)CCC(=O)c1cccc(NS(=O)(=O)c2c[nH]c3ncccc23)c1,kinase activity,,radiometric,10 µM,remaining activity,107%
Cc1cccc(-c2ccc3nc(NC(=O)C4CCOCC4)nn3c2)c1,enzyme activity,,Dundee kinase panel,10 µM,remaining activity,43%
Cc1cccc(O[C@H]2CCC[C@@H](C(C)CNCc3ccncc3)C2)c1 (relative stereo),enzyme activity,inhibitor,,1 µM,inhibition,2%
Cc1cnc2nc1Nc1cccc(c1)COC/C=C/COCc1cc(ccc1OCCN1CCOCC1)N2,binding,,competition with immobilised ligand,0.1 µM,remaining binding,82%
C[C@H]1CN(C(=O)c2cn(-c3ccnc(N)n3)c3cc(C#CC4(O)CCCCC4)ccc23)CCN1,enzyme activity,inhibitor,FRET,1 µM,inhibition,0%
Nc1nc(Nc2ccccc2)sc1C(=O)c1ccccc1,enzyme activity,inhibitor,,10 µM,remaining activity,0%
C=C1CCCCCCCCCC(CO)C1=O (stereo not shown),cell-free assay,,competition with immobilised ligand,10 µM,remaining binding,71%
COc1ccc(NC(=O)Nc2ccc3c(c2)C(=O)N(C(C)CO)CC(C)C(CN(C)Cc2ccc4c(c2)OCO4)O3)cc1 (stereo not shown),binding,,competition with immobilised ligand,10 µM,remaining binding,71%
COc1c(Cl)cccc1Nc1c(-c2ccncc2C#C[C@@]2(C)CCCN2C(=O)/C=C/CN(C)C)[nH]c2c1C(=O)NCC2,binding,,competition with immobilised ligand,3 µM,remaining binding,95%
COc1ccc(C(=O)/C=C/c2ccccc2-c2c[nH]c3ccc(C#N)cc23)c(O)c1,enzyme activity,inhibitor,,20 µM,inhibition,12%
C=CC(=O)N1CCCC(n2c(=O)c3ncccc3n(Cc3ccc(Oc4ccccc4)cc3)c2=O)C1 (stereo not shown),cell-free assay,,competition with immobilised ligand,1 µM,remaining binding,73%
